# Experimental data gathered from unrelated publications.
# Each numbered part is a random draw from the data of one study; scales do not carry over between parts.
# Chain of UniProt P22455 (whole entry, looked up): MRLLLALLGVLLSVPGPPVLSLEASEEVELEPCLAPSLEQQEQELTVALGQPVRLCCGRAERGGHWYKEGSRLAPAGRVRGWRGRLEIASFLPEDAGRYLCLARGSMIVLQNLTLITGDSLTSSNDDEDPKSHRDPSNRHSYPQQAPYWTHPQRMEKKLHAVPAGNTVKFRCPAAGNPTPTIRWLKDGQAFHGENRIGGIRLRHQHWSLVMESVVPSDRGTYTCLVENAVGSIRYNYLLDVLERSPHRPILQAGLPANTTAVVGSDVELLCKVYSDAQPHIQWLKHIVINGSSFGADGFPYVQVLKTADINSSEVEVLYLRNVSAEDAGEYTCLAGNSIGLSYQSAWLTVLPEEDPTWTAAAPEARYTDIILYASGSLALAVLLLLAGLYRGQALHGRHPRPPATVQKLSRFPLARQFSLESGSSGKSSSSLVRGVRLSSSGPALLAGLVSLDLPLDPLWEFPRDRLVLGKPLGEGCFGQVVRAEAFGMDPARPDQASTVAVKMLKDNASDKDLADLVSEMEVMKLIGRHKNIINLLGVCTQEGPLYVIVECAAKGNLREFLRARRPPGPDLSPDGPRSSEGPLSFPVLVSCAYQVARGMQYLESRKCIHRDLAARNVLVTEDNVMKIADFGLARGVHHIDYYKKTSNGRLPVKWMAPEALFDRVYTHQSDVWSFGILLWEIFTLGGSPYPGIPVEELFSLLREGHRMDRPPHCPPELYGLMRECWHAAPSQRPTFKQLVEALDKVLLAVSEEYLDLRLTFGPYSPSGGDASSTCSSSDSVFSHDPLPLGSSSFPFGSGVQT
# Chain of UniProt P23458 (whole entry, looked up): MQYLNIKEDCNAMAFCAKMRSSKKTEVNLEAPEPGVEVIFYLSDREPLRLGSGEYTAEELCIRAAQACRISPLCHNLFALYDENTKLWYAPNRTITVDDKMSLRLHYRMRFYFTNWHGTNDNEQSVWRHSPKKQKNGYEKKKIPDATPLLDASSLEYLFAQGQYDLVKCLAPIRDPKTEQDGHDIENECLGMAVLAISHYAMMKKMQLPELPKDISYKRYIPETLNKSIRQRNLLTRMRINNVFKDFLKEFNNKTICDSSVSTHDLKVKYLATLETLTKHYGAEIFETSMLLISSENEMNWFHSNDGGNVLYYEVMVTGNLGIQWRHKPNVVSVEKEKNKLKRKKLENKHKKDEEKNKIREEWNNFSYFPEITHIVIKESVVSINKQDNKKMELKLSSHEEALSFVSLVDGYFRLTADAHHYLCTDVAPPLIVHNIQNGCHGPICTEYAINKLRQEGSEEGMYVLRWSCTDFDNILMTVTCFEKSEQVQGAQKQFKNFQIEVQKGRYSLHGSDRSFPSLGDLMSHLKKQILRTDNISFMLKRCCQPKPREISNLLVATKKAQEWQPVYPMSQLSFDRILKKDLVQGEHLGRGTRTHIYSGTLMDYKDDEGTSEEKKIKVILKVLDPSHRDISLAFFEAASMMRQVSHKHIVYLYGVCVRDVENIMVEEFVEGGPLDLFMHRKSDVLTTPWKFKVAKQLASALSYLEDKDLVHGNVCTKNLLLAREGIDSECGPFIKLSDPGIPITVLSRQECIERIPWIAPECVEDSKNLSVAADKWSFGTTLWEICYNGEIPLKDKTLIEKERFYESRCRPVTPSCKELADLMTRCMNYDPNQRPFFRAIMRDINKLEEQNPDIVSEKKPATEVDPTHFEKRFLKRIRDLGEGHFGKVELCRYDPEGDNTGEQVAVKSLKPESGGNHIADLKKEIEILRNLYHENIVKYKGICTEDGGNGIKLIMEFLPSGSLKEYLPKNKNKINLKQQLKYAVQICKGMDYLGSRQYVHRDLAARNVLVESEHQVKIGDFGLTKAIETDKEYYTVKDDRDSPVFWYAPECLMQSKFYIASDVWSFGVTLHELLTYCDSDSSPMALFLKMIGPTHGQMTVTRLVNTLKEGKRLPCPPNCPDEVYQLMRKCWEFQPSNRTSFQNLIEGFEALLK
# Chain of UniProt Q13177 (whole entry, looked up): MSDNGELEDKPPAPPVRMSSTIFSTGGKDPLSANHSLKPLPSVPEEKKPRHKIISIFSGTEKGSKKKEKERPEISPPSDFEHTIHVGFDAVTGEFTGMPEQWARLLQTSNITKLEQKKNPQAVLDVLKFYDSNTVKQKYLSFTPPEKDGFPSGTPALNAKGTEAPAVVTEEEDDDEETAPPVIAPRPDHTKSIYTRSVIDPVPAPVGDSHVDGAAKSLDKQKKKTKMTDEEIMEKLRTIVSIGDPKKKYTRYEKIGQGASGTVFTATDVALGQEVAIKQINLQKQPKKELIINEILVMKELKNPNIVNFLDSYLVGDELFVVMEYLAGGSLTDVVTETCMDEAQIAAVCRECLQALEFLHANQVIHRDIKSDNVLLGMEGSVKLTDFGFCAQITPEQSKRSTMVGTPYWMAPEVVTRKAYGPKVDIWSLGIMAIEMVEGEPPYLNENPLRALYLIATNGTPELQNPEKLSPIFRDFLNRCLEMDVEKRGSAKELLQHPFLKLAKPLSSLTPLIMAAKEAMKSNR
# Chain of UniProt Q8IWQ3 (whole entry, looked up): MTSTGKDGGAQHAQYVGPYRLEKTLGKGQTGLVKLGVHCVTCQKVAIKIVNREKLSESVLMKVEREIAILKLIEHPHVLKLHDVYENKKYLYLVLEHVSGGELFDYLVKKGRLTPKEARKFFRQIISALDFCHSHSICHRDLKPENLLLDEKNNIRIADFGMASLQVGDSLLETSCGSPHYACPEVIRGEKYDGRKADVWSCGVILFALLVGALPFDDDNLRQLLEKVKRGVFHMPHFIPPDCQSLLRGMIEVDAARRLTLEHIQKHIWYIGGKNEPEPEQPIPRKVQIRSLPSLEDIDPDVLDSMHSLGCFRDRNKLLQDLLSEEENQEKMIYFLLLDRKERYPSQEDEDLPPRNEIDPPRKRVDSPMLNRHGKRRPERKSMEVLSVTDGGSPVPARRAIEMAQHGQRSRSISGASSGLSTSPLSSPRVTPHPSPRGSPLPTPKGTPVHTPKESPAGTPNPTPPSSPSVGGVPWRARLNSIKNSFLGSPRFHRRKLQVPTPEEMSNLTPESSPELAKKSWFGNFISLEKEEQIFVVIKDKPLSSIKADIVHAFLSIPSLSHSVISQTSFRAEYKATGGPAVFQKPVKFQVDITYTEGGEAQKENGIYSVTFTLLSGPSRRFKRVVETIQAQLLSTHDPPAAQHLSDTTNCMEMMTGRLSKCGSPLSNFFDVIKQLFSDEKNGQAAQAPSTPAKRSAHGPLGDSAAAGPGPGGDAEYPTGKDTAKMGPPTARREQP
# Chain of UniProt Q9C098 (whole entry, looked up): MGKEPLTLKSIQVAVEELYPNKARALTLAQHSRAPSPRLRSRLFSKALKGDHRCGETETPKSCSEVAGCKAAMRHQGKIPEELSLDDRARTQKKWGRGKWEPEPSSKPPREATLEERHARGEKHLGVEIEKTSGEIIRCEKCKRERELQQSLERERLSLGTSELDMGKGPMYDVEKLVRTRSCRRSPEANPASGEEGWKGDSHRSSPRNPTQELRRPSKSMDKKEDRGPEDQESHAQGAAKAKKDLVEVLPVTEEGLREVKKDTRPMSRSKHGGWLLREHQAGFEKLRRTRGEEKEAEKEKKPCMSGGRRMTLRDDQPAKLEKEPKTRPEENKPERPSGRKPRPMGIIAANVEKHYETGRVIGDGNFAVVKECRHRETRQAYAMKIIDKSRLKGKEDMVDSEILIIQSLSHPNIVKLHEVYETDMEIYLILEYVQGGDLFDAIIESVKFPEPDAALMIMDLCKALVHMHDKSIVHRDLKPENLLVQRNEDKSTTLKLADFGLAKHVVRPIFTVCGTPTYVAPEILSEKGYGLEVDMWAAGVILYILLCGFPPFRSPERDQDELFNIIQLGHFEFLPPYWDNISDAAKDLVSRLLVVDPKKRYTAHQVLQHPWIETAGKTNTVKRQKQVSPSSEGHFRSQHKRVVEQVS

# Study 1 — species: human; medium: microsomes or S9; concentration: 2 µM; time: 0.5 h
Structure (SMILES),remaining compound [%]
Cc1cnc(C2=NC(C)(C(C)C)C(=O)N2)c(C(O)C(=O)N(C)c2ccc(Cl)c(Cl)c2)c1 (stereo not drawn),5.33
COC(=O)c1cc(N)c2c(c1)Oc1ccccc1O2,0
COc1cc2c(cc1O)[C@@H]1Cc3ccc(O)c(OC)c3CN1CC2,> 99.9
N#Cc1cccc(Nc2cccc3c2CN(c2cccc(C(=O)O)c2)C3=O)c1,58
Cc1ccc2[nH]c3nc(N/N=C/c4cc5c(cc4Cl)OCO5)nnc3c2c1,67.4
CCOC(=O)c1ccc(NC(=O)N(Cc2ccc3c(c2)OCO3)C2CCN(CC)CC2)cc1,90.6
COc1ccc(OCCNC(=O)c2cc(S(=O)(=O)N(C)C)c(Cl)cc2Cl)cc1,32.5
COCCn1c(CCNC(=O)C2CCCN(c3ncccn3)C2)nc2ccccc21 (stereo not drawn),5.61
Cc1ccc(N2C(=O)c3n[nH]c(C)c3C2c2ccco2)cc1 (stereo not drawn),69.5
CCc1cnc(N2CCC(N(C)c3ncnc4c(-c5ccc6c(c5)CN(C)C6=O)csc34)CC2)nc1,21.3
CC(C)CN(CCNS(=O)(=O)c1ccc(-c2ccc(=O)[nH]n2)s1)CC(C)C,0.42
c1ccc(COc2ccc(-c3n[nH]cc3CN3CCNCC3)cc2)cc1,51.6
CC(C)Cn1c(=O)c(N2CCN(S(=O)(=O)Cc3ccccc3)CC2)nc2ccncc21,12.5
O=C(O)CCc1nnc2[nH]c3ccccc3n2c1=O,70.3
CC1=CC(C)(C)N2C(=O)C3(NCCc4c3[nH]c3ccccc43)c3cccc1c32 (stereo not drawn),0.164

# Study 2 — Structure (SMILES): C=CCc1ccc(O)c(-c2ccc(O)c(CC=C)c2)c1; effect on: chloride current
# ANO1 del476-501: Anoctamin-1 (ANO1, Homo sapiens, UniProt Q5XXA6, del476-501)
# Chain of UniProt Q5XXA6 (whole entry, unmodified, looked up): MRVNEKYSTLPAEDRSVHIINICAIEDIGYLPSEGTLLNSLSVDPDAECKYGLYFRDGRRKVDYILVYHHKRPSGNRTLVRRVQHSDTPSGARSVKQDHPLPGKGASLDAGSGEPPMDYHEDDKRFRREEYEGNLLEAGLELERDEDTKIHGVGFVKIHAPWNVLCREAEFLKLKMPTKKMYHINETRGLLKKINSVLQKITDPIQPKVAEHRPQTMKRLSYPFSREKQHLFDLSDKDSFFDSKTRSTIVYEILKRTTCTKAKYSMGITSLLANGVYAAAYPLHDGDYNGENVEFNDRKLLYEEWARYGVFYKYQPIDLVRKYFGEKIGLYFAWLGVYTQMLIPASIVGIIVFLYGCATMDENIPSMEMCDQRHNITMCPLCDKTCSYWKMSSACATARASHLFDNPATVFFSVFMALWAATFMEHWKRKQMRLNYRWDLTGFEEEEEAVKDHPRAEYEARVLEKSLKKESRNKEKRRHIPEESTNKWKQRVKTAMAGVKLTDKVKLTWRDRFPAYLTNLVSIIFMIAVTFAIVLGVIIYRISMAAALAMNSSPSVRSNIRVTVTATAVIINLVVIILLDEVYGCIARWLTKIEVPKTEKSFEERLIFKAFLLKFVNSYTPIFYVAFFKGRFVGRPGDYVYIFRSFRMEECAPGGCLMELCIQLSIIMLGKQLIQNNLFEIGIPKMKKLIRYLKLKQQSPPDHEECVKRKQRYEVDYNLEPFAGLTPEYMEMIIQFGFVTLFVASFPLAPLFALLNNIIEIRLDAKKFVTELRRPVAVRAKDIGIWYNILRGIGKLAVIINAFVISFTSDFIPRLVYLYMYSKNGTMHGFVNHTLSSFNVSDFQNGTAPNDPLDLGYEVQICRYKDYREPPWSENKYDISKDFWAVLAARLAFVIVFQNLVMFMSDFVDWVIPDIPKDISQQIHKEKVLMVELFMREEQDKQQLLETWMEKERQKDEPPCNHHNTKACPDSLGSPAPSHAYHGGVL
# ANO1 del476-501/F803A: Anoctamin-1 (ANO1, Homo sapiens, UniProt Q5XXA6, del476-501/F803A)
# ANO1 del476-501/F628A: Anoctamin-1 (ANO1, Homo sapiens, UniProt Q5XXA6, del476-501/F628A)
target,test,conditions,scale,normalized current
"Anoctamin-1 (ANO1, Homo sapiens, UniProt Q5XXA6, del476-501/E649A/R541A)",inside-out patch clamp,"10 µM, membrane voltage 120 mV",,1
ANO1 del476-501,whole-cell voltage clamp,"10 µM, wild type, I-V at -80 mV, with: 4 µM Ca2+",,-0.22
ANO1 del476-501/F803A,"inhibitor, whole-cell voltage clamp",10 µM,relative to: untreated,0.581
TMEM16A (human) K603A/E623A,inside-out patch clamp,"10 µM, membrane voltage 120 mV",,1
ANO1 del476-501/F628A,whole-cell voltage clamp,"30 µM, concentration-response at -80 mV, with: 4 µM Ca2+",,-0.362
ANO1 del476-501/F628A,whole-cell voltage clamp,"30 µM, I-V at 80 mV, with: 4 µM Ca2+",,0.377
ANO1 del476-501/F628A,whole-cell voltage clamp,"1 µM, concentration-response at 40 mV, with: 4 µM Ca2+",,0.38
ANO1 del476-501,whole-cell voltage clamp,"3 µM, wild type, concentration-response at -60 mV, with: 4 µM Ca2+",,-0.433
ANO1 del476-501/F628A,whole-cell voltage clamp,"30 µM, I-V at 20 mV, with: 4 µM Ca2+",,0.0738
ANO1 del476-501,whole-cell voltage clamp,"1 µM, wild type, concentration-response at 40 mV, with: 4 µM Ca2+",,0.356
ANO1 del476-501,whole-cell voltage clamp,"30 µM, wild type, concentration-response at 80 mV, with: 4 µM Ca2+",,0.0492
human TMEM16A K603A/E623A,"inhibitor, inside-out patch clamp","10 µM, at -80 mV",,-0.315
ANO1 del476-501/F628A,whole-cell voltage clamp,"1 µM, I-V at 0 mV, with: 4 µM Ca2+",,-0.0053
"Anoctamin-1 (ANO1, Homo sapiens, UniProt Q5XXA6, del476-501/E649A)","inhibitor, inside-out patch clamp","10 µM, E623A mutant at -80 mV",,-0.563
"Anoctamin-1 (ANO1, Homo sapiens, UniProt Q5XXA6, del476-501/E659A/K629A)",inside-out patch clamp,"10 µM, membrane voltage 120 mV",,1
ANO1 del476-501,whole-cell voltage clamp,"1 µM, wild type, I-V at -40 mV, with: 4 µM Ca2+",,-0.343
ANO1 del476-501/F803A,"inhibitor, whole-cell voltage clamp",3 µM,relative to: untreated,0.78
"Anoctamin-1 (ANO1, Homo sapiens, UniProt Q5XXA6, del476-501/R541A)",inside-out patch clamp,"10 µM, membrane voltage -60 mV",,-0.38
ANO1 del476-501,whole-cell voltage clamp,"1 µM, wild type, concentration-response at -60 mV, with: 4 µM Ca2+",,-0.495

# Study 3 — effect on: enzyme activity; action: inhibitor; concentration: 0.5 µM; relative to: control
# Structure (SMILES): COc1ccc2c(c1)c(C1=C(c3c[nH]c4ccccc34)C(=O)NC1=O)cn2CCCN(C)C
target,remaining activity [%]
"PIM2 (Homo sapiens, UniProt Q9P1W9)",90.5
"FLT3 (Homo sapiens, UniProt P36888)",23.2
"EPHA7 (Homo sapiens, UniProt Q15375)",88.8
"PRKCE (Homo sapiens, UniProt Q02156)",14.6
"RPS6KA1 (Homo sapiens, UniProt Q15418)",16
"RPS6KB1 (Homo sapiens, UniProt P23443)",19.7
"PAK2 (Homo sapiens, UniProt Q13177)",108
"SRPK3 (Homo sapiens, UniProt Q9UPE1)",89.5
"FGFR4 (Homo sapiens, UniProt P22455)",79.2
"CSK (Homo sapiens, UniProt P41240)",84
"CSF1R (Homo sapiens, UniProt P07333)",92.8

# Study 4 — effect on: cell-free assay; method: competition with immobilised ligand; concentration: 1 µM
# Structure (SMILES): CCCOc1ccc([C@H]2[C@H](C(=O)O)[C@@H](c3ccc4c(c3)OCO4)CN2CC(=O)Nc2c(CC)cccc2CC)cc1
target,remaining binding
"BRSK2 (Homo sapiens, UniProt Q8IWQ3)",97%
"CAMK1G (Homo sapiens, UniProt Q96NX5)",90%
"PIK3C2B (Homo sapiens, UniProt O00750)",92%
"MST1R (Homo sapiens, UniProt Q04912)",86%
"CAMK4 (Homo sapiens, UniProt Q16566)",89%
"HUNK (Homo sapiens, UniProt P57058)",100%
"TSSK3 (Homo sapiens, UniProt Q96PN8)",58%
"ROCK2 (Homo sapiens, UniProt O75116)",69%
"PRKAA2 (Homo sapiens, UniProt P54646)",100%
"NTRK2 (Homo sapiens, UniProt Q16620)",85%
"NLK (Homo sapiens, UniProt Q9UBE8)",100%
"FGFR4 (Homo sapiens, UniProt P22455)",87%
"DCLK3 (Homo sapiens, UniProt Q9C098)",100%
"CAMK2D (Homo sapiens, UniProt Q13557)",93%
"Tyrosine-protein kinase JAK1, JH2 (JAK1, Homo sapiens, UniProt P23458)",94%

# For quick reference, copied from above (study 3):
target,remaining activity [%]
"PRKCE (Homo sapiens, UniProt Q02156)",14.6
"PIM2 (Homo sapiens, UniProt Q9P1W9)",90.5
"CSK (Homo sapiens, UniProt P41240)",84
"RPS6KB1 (Homo sapiens, UniProt P23443)",19.7
